Measured values collected from several papers.
Parts stem from different laboratories: compare values within a part only. Changes are numbered by the printed parent chain.
Sequence of UniProt Q9C0B0 (30-357, looked up): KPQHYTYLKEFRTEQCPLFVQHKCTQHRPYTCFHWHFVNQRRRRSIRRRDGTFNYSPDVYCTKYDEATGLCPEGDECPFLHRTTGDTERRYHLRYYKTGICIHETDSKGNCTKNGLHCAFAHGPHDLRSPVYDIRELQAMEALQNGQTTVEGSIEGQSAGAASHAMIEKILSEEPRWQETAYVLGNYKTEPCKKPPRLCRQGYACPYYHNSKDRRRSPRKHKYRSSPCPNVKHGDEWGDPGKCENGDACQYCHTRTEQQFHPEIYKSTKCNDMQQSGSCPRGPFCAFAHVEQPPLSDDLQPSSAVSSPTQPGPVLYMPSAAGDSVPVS

Set 1
Target: ABI1, truncated, D143A, DHFR fusion (Arabidopsis thaliana)
Method: DHFR PCA, deep sequencing
Matrix: yeast
Setting: methotrexate growth selection, single substitutions
Added: (+)-ABA 200 µM
Relative to: wild-type fitted maximum
Reading: higher = stronger binding
Starting sequence: PYL1, truncated, DHFR fusion (Arabidopsis thaliana); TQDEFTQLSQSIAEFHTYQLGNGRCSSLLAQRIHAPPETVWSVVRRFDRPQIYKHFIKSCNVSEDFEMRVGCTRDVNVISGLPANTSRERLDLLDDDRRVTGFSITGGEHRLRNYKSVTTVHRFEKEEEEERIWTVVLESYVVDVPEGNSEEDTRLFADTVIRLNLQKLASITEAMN
Variant | relative binding score
R90W | 0.694%
R123L | 99%
R45H | 21.8%
T39K | 102%
E109L | 83.9%
T106D | 74.4%
Y141N | -10.7%
I162W | 0.626%
L8I | 89.9%
C72A | 107%
N177R | 74.1%
D144M | 60.3%
D97W | 87.4%
T101Y | 93.3%
S140Q | 6.46%
F47C | -1.99%

Set 2
Target: Histone acetyltransferase KAT6A, both winged helices, GST fusion (KAT6A, Homo sapiens, UniProt Q92794, residues 1-181)
Method: protein binding microarray
Form: double-stranded DNA, one strand shown
Matrix: in vitro
Tested at: not given
Setting: 8-mer, flanks averaged, mean of 2 arrays, mostly near background
Relative to: not given
Reading: higher = stronger binding
Residues (chain): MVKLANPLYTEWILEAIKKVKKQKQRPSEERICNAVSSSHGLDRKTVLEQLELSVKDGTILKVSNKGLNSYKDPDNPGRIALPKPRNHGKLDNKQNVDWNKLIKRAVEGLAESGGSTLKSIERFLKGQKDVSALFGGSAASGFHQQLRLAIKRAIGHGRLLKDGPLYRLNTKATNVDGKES
Oligonucleotide | E-score
AGAGAACG | -0.0798
ACATCTTG | -0.196
GGGCTTAA | -0.117
ACGCTAAT | 0.155
AGGCAGTA | -0.134
CCCGGACG | 0.105
AGCTTGTC | 0.00651
AACTTCCC | -0.0499
CAGGTATC | -0.0736
TAATGCGA | 0.118
ACGGCCTC | 0.146
CCAGCTAA | -0.157
TATCACGA | -0.235
TCACTAAA | -0.0769
AACATGAG | 0.0306
AGACGAAT | -0.095
GCCTTCAC | 0.0992
CATATGTC | 0.11
AAGGATGT | -0.116
CACTCTGC | -0.222
CGCGTGCA | 0.225
ATTTTGAG | -0.104

Set 3
Target: RNA binding protein fox-1 homolog 2, RRM domain, GST-SBP tag (RBFOX2, Homo sapiens, UniProt O43251-10, residues 100-194)
Method: RNA Bind-n-Seq
Form: RNA
Matrix: in vitro
Tested at: 365 nM
Setting: natural RNA segment, single round, ends assumed
Relative to: no-protein control
Reading: higher = stronger binding
All sequences stand within: GGGAGUUCUACAGUCCGACGAUC … UGGAAUUCUCGGGUGCCAA
Target sequence (chain): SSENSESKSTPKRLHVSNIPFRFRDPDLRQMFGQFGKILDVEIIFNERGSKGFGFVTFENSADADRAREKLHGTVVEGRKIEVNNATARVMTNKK
Oligonucleotide | RBNS enrichment (R)
CCACCUUGUGUUCAGAAAGCAAAAGUGAAGUGAUAGCCAAGCAUGGGCCACUAGAUGGAGUAUCCUGGGCCUUUGUAGCAUAGCUCUUCUCUGGAGCACCCUAUUUGCUU | 0.769
AGUCACUACGCCCGGCCCAUGUCUGUCUGUCUUGAUGUGUGAGCAGCAGCUGUGGUCAUUAAACCAUUAGUUUACCCCUCUAGAACUGGGGUCUGCAAACUCCCACCUGC | 0.515
GCCUCUUCACACACCGUCUGCCUGCCUGCUUCCUUCUGAGAAUAUUUUCCCAGUAUCUCCAGGCCUUCCUUAGUCUGUCCCACCGUGCAUCUGCUUACCUCAUGGCGCUG | 1.11
CAGUUCUCAAAUGUCAAUGUAGAUAAGAGUCAUCUAGUAGAGAACUCAUCAGAGUGCGGAUUGCCAAGACCCUUCUCCAGAGAUUAUGGGGUUGGGGGUGGAGGUCUAGA | 0.788
CAAAAUUUGUCAUUUUGGGUGUCAACAGCUAAAUGGUCUGGUUUUUACCCCUGUUUUGCCUUUUUUGCAAUAAAAUUAUUUCCAAAAAACAUACAUUUCCUAUCAAUCAU | 0.771
UGCGGCUGGGCUGCUUUAGGAGACCAAGUGGCAAGAAAGCUCACAUUUUUUGAGUUCAAAUGCUACUGUCCAAGCGAGAAGUCCCUCAUCCUGAAGUAGACUAAAGCCCG | 0.228
UCUUUGGCUCUCUCUGAAAUGCCCGUCUCAUCCUGUCUUUUUCGAGCAUGGCUCACAGGCCUUGUGUCUGGGUGAAGGGAACCCAGGGUCAGGCUGCACUUCUGUUUCUG | 1.71
GUUCUGAAUAGUACAGAUUGAUGUGAACACAAAGCAUUUUGUGUAAGGAGAACCCCUUUCUUUUAAAAGAAGUCUGUCUAUUUCGAGGGGAGUUACAGGCAAGUUUGGUA | 0.756
UCUGUUUGAUACCUUGAGAGCAGAUACCUGGUCAGCGAGCUUUUAGGGGGGGGCGUUCAAAGGAAGCUGUUUAGCCUGACCGCAAGUACUGAAGUCUCUGCUUUCUGUCA | 0.683
AUGGGUCUCCAUUCUGUGUGGCACCUUGAUUGGAAAAUAAUAUCCAUGCGUUUCUUCCACUGAGUCUUUCUUAGAUUAAAUCUCUCCCAGUUGUCCGUGAAGAGAAAGAC | 0.485
UUUUUGGACGUUGGAAGAGCUCAGAAGCCCAUCUUCUGCAGUUACCAAGGAAGAAAGAUCGUUCUGAAGUUACCCUCUGUCAUACAUUUGGUCUCUUUGACUUGGUUUCU | 0.299
GCAGGUGUCUUAAUUUACUCAACCUUCCCUAAAAGAGAAUUGUAUUGGGGCAGGAGGGAUCGCAGUUCUUCAAAUUCAGGUCUUCGAAGAUAAUUUCCAGGUGUCUUCUC | 0.619

Set 4
Target: Interferon regulatory factor 5, full length, phosphomimetic (IRF5, Homo sapiens, UniProt Q13568-2, residues 1-514, S451D/S453D/S456D/S462D)
Method: protein-binding microarray
Form: double-stranded DNA, one strand shown
Matrix: in vitro
Tested at: 940 nM top
Setting: 60-bp whole probe
Added: salmon DNA 0.4 mg/ml
Relative to: random background probes
Reading: higher = stronger binding
All sequences stand within: GCCTAGCAC … GTCTTGATTCGCTTGACGCTGCTG
Oligonucleotide | fitted relative affinity
TCAGGTTTCCTTTTCCTTTAGTGCTAG | 1.66 z-score
GATGGGCTACCTCTCTTAGAGTGCTAG | -0.354 z-score
CTTTTATGCTCTTTCTACATGTGCTAG | 1.18 z-score
CACGGTATCGGACTGGGGACGTGCTAG | 2.29 z-score
GACGATTTCGGACTGGGGACGTGCTAG | 0.163 z-score
GACGATCTCAGACTGGTGACGTGCTAG | -0.395 z-score
TCCTTTTAATTTTTAACGAGGTGCTAG | 0.154 z-score
GACAGTCTCCTACTGCTGACGTGCTAG | 0.214 z-score
TGACGGCTCACTCCGTTGGAGTGCTAG | -0.583 z-score
GACGGTTTCGGTTTTGGGACGTGCTAG | 12.2 z-score
GACGCTCTCGGTCTCGGGACGTGCTAG | 4.22 z-score
GACGGACTGTGGTATCGGGACGTGCTA | 0.744 z-score
GACGGACAGGGGACTGGGGACGTGCTA | 0.0561 z-score
TTAGGACCGGGGACTGGGTTAGTGCTA | -0.427 z-score
CCTACCGCCCTTACCGCCGCGTGCTAG | 0.362 z-score
GATGGTTTCCTACTGCTGACGTGCTAG | 0.876 z-score
TCAGTGCTCATTTTTTTACTGTGCTAG | 0.186 z-score
GACGGTTTCCTTATCCTGATGTGCTAG | 1.25 z-score
TTACGTTTCCTTATCCTTTAGTGCTAG | 2.23 z-score
TTAGGTATCCTACCGCTTTAGTGCTAG | -0.283 z-score
AACTGCTGCCGTCCACCACTGTGCTAG | -0.0753 z-score
GACGATATCAGTTTCGTGACGTGCTAG | 1.62 z-score
GACGAAATCAGTCTCGAGACGTGCTAG | 1.28 z-score
GGGCATTTTTTTATCAATCAGTGCTAG | 0.672 z-score
GACGGTTCCCTTTTCCAGACGTGCTAG | 0.842 z-score

Set 5
Target: Ras GTPase-activating protein-binding protein 1, RRM domain (G3BP1, Homo sapiens, UniProt Q13283)
Sequence of UniProt Q13283 (whole entry, looked up): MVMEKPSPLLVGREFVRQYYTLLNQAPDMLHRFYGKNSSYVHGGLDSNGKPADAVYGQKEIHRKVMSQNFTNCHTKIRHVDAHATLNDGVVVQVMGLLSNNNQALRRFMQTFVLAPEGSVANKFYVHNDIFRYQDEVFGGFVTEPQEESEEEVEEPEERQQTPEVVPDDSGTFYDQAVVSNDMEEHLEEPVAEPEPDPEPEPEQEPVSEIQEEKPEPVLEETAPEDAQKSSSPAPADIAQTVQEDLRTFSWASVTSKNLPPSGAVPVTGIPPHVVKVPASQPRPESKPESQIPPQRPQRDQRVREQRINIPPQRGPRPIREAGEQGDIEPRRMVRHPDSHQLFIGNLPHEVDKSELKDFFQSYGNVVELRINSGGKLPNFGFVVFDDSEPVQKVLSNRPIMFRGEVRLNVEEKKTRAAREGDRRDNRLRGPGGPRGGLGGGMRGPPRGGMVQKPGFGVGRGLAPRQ
Method: RNA Bind-n-Seq
Form: RNA
Matrix: in vitro
Tested at: 1 µM
Setting: whole 134-nt RNA, ends assumed
Added: 150 mM KCl
Relative to: input library
Reading: higher = stronger binding
All sequences stand within: GGGAGUUCUACAGUCCGACGAUC … UGGAAUUCUCGGGUGUCAAGG
Oligonucleotide | log2 enrichment
UGCGGGCCGAGAAUCGGGAGCUGGGCAAACGCGUACAGGCACUGCAGGAGGAGAGUCGCUACCUACGGGCAGUCUUAGCCAACGAGACUG | -0.666
CACAGACAACACGCACCCACACAGACACAGAGGGAAGGGGUUGGGAUGGGGACAGGGUGCACAGCAGGGCGGGGCAGGACCCCAGCCCCU | -0.282
UUGGACUUGGAGCAUCUGCUCAGUGAGUCUCCAGAAGGAAGUCCCUUCCGAGAUAUGGAUGAUGGAAGUGAUUCCCUUGGGGUGGGAUUG | -0.316
CUGAAGAGUCUGAGGAUGCCCAAUCACAGAGCCAAGCAGAUGAAGAGGAGGAAGAUGAUGAUUUUGGGGUGGAGUACUUGCUUGCCAGGG | -0.0961
CCUCAAGUCCUGUGCUACACAUCGUAUGUACCGAAUCGGAAAAAGGAGGUGGAAAGUAUUAUGUUACGCCGUUCGGAUCUGCACUUCCAG | -0.0844
UUCCUCAAGUCCUGUGCUACACAUCGUAUGUACCGAAUCGGUGGGUGGUGGAAAGUAUUAUGUUACGCCGUUCGGAUCUGCACUUCCAGC | -0.133
CUCAAGUCCUGUGCUACACAUCGUAUGUACCGAAUCGGCCGGGCCGGCCGGGGAAAGUAUUAUGUUACGCCGUUCGGAUCUGCACUUCCA | -0.263
UCCUGUGCUACACAUCGUAUGUACCGAAUCGGGGAAAAAGGGAAAAAGGGAAAAAGGGGAAAGUAUUAUGUUACGCCGUUCGGAUCUGCA | 0.145
GCAGGAAGUAAAAACAAAUGGAAAUGCUUCGGAUAGUGGCAGGGGUGGGGGUUGCUAAGGAAAGGGUGGGAUGCGAGUGGGUAAAGAGUU | 1.47
UAACUUUAGAGGAGGAUCUGAUGGAUAUGGCAGUGGACGUGGAUUUGGGGAUGGCUAUAAUGGGUAUGGAGGAGGACCUGGAGUUGGCAA | -0.406
UGGGAGGUGGAUUUUGUUUAUUUUUUUAGCUCAUUUCCAGGGGUGGGAAUUUUUUUUUAAUAUGUGUCAUGAAUCAAGUUGUUUUUGAAA | 1.19
AAGUCCUGUGCUACACAUCGUAUGUACCGAAUCGGUUUUGGGGUUUUGGGUUUUGGGAAAGUAUUAUGUUACGCCGUUCGGAUCUGCACU | -0.012
GCAGGAAGUAAAAACAAAUGGAAAUGCUUUGGAUAGUGGCAGGGGUGGGGGUUGCUAAGGAAAGGGUGGGAUGGGAGUGGGUAAAGAGUU | 0.813
UAACUUUAGAGGAGGAUCUGAUGGAUAUGGCAGUGGACGUGGAUUUGGGGAUGGCUAUAAUGGGUAUGGAGGAGGACCUGGAGGGGGCAA | -0.415

Mixed results
Oligonucleotide | target | assay | system | setting | how to read | quantity | value
GGGAGUUCUACAGUCCGACGAUCGAGUGCUUAAGCUGCCAACAGUCCGAAGAUGCUAUUUAUUUGUGUCUGUAAGUUUGUACACCGUAAUGCCAGCCUUGUUGCUGAAUUUUUUAUUUGGGGGGAGAUGACUUUGAAUUUUGUCAACAGAGGAUUGAGCAUCA | RING finger protein unkempt homolog, zinc fingers 1-6, SBP tag (UNK, Homo sapiens, UniProt Q9C0B0, residues 30-357) | RNA Bind-n-Seq | RNA, in vitro | 100 nM, RNA with constant flanks, ends assumed | relative to: input RNA pool, higher = stronger binding | bound/input enrichment | 1.2 ratio
